Results from different studies.
± gives the spread as reported.

CCn1cc(C(=O)NCCCCCC(=O)N[C@@H](CCCNC(=N)N)C(=O)N[C@@H](CC(C)C)C(=O)N[C@@H](CC(C)C)C(=O)N[C@@H](CCCNC(=N)N)C(N)=O)c(=O)c2cc3c(cc21)OCO3  retention time (RP-HPLC, C18 column; higher is more hydrophobic): 6 min
CC(C)C[C@H](NC(=O)[C@@H](CCCCNC(=O)CCCCCNC(=O)CN1CCN(CC(=O)O)CCN(CC(=O)O)CCN(CC(=O)O)CC1)NC(=O)[C@H](Cc1ccc(O)cc1)NC(=O)[C@H](CO)NC(=O)[C@H](Cc1c[nH]c2ccccc12)NC(=O)[C@H](Cc1cnc[nH]1)NC(=O)[C@@H]1CCC(=O)N1)C(=O)N[C@@H](CCCNC(=N)N)C(=O)N1CCC[C@H]1C(=O)NCC(N)=O [indium-111 labelled]  tissue uptake (female athymic nude mouse, kidneys; intravenous, 0.037 MBq, 0.5 h): 15.4 ± 4.59 %ID/g
CCn1cc(C(=O)NCCCCCC(=O)N[C@@H](CCCNC(=N)N)C(=O)N[C@@H](Cc2c[nH]c3ccccc23)C(=O)N[C@@H](CCC(N)=O)C(=O)N[C@@H](Cc2c[nH]c3ccccc23)C(=O)N[C@@H](CCCNC(=N)N)C(=O)N[C@@H](Cc2c[nH]c3ccccc23)C(=O)N[C@@H](CCC(N)=O)C(=O)N[C@@H](Cc2c[nH]c3ccccc23)C(=O)N[C@@H](CCCNC(=N)N)C(N)=O)c(=O)c2cc3c(cc21)OCO3  retention time (RP-HPLC, C18 column; higher is more hydrophobic): 6.9 min
CCCC[C@@H]1NC(=O)[C@@H](CC(C)C)NC(=O)[C@H](CCCCNC(=O)CN2CCN(CC(=O)O)CCN(CC(=O)O)CC2)NC(=O)[C@@H](CO)NC(=O)[C@H](Cc2c[nH]cn2)NC(=O)[C@@H](Cc2c[nH]c3ccccc23)NC1=O  free 64Cu (mouse plasma; 24 h): 6.6%
CCCC[C@H](NC(=O)COCCOCCNC(=O)CN1CCN(CC(=O)O)CCN(CC(=O)O)CC1)C(=O)N[C@H]1CC(=O)NCCCC[C@@H](C(N)=O)NC(=O)[C@H](Cc2c[nH]c3ccccc23)NC(=O)[C@H](CCCNC(=N)N)NC(=O)[C@@H](Cc2ccccc2)NC(=O)[C@H](Cc2c[nH]cn2)NC1=O [copper-64 labelled]  tissue uptake (C57 mice, blood; intravenous, 0.37 MBq, 4 h): 0.2 ± 0.03 %ID/g
CCCC[C@H](NC(=O)CNC(=O)CNC(=O)CN1CCN(CC(=O)O)CCN(CC(=O)O)CCN(CC(=O)O)CC1)C(=O)N[C@H]1CC(=O)NCCCC[C@@H](C(N)=O)NC(=O)[C@H](Cc2c[nH]c3ccccc23)NC(=O)[C@H](CCCNC(=N)N)NC(=O)[C@@H](Cc2ccccc2)NC(=O)[C@H](Cc2c[nH]cn2)NC1=O [lutetium-177 labelled]  tissue uptake (C57 mouse, female, spleen; intravenous, 0.037 MBq, 2 h): 0.27 ± 0.14 %ID/g
C=C1CC[C@H](OCCCNC(=O)CCOCCOCCOCCOCCOCCOCCOCCOCCOCCOCCOCCOCCOCCOCCOCCOCCOCCOCCOCCOCCOCCOCCOCCOCCOCCOCCOCCOCCOCCOCCOCCOCCOCCOCCOCCOCCNC(=O)CCN2C(=O)CC(SC[C@H](NC(=O)[C@H](Cc3ccccc3)NC(=O)[C@H](CC(N)=O)NC(=O)[C@H](Cc3c[nH]cn3)NC(=O)[C@@H](NC(=O)[C@H](CC(=O)O)NC(=O)[C@H](CCC(N)=O)NC(=O)[C@H](CC(C)C)NC(=O)[C@H](CCCCN)NC(=O)[C@H](CCCCN)NC(=O)[C@H](CCCNC(=N)N)NC(=O)[C@H](CC(C)C)NC(=O)[C@H](Cc3c[nH]c4ccccc34)NC(=O)[C@H](CCC(=O)O)NC(=O)[C@@H](NC(=O)[C@H](CCCNC(=N)N)NC(=O)[C@H](CCC(=O)O)NC(=O)[C@H](CCSC)NC(=O)[C@H](CO)NC(=O)[C@H](CC(N)=O)NC(=O)[C@H](CC(C)C)NC(=O)[C@H](Cc3c[nH]cn3)NC(=O)[C@H](CCCCN)NC(=O)CNC(=O)[C@H](CC(C)C)NC(=O)[C@H](CC(N)=O)NC(=O)[C@H](Cc3c[nH]cn3)NC(=O)[C@H](CCSC)NC(=O)[C@H](CC(C)C)NC(=O)[C@H](CCC(N)=O)NC(=O)[C@@H](NC(=O)[C@H](CCC(=O)O)NC(=O)[C@H](CO)NC(=O)[C@@H](NC(=O)[C@@H](N)CO)C(C)C)[C@@H](C)CC)C(C)C)C(C)C)C(N)=O)C2=O)C/C1=C/C=C1\CCC[C@]2(C)[C@@H]([C@H](C)CCCC(C)(C)O)CC[C@@H]12 (some centres unmarked)  dose-normalized AUC (Sprague Dawley rat; subcutaneous, 3 µg/kg daily, 89 days; relative to: 1 µg/kg dose): 0.98
CCCC[C@H](NC(=O)CCCCCCCNC(=O)CN1CCN(CC(=O)O)CCN(CC(=O)O)CC1)C(=O)N[C@H]1CC(=O)NCCCC[C@@H](C(N)=O)NC(=O)[C@H](Cc2c[nH]c3ccccc23)NC(=O)[C@H](CCCNC(=N)N)NC(=O)[C@@H](Cc2ccccc2)NC(=O)[C@H](Cc2c[nH]cn2)NC1=O [copper-64 labelled]  tissue uptake (C57 mice, intestine; intravenous, 0.37 MBq, 24 h): 0.74 ± 0.23 %ID

Repeated from above:
CCn1cc(C(=O)NCCCCCC(=O)N[C@@H](CCCNC(=N)N)C(=O)N[C@@H](Cc2c[nH]c3ccccc23)C(=O)N[C@@H](CCC(N)=O)C(=O)N[C@@H](Cc2c[nH]c3ccccc23)C(=O)N[C@@H](CCCNC(=N)N)C(=O)N[C@@H](Cc2c[nH]c3ccccc23)C(=O)N[C@@H](CCC(N)=O)C(=O)N[C@@H](Cc2c[nH]c3ccccc23)C(=O)N[C@@H](CCCNC(=N)N)C(N)=O)c(=O)c2cc3c(cc21)OCO3  retention time (RP-HPLC, C18 column; higher is more hydrophobic): 6.9 min
